# Measurements from different studies.
# Numbered parts are unrelated; each lists some results of a single study. Values joined by “and” are separate records of one study, mostly repeats; a detail may differ.
# Chain of UniProt Q13554 (whole entry, looked up): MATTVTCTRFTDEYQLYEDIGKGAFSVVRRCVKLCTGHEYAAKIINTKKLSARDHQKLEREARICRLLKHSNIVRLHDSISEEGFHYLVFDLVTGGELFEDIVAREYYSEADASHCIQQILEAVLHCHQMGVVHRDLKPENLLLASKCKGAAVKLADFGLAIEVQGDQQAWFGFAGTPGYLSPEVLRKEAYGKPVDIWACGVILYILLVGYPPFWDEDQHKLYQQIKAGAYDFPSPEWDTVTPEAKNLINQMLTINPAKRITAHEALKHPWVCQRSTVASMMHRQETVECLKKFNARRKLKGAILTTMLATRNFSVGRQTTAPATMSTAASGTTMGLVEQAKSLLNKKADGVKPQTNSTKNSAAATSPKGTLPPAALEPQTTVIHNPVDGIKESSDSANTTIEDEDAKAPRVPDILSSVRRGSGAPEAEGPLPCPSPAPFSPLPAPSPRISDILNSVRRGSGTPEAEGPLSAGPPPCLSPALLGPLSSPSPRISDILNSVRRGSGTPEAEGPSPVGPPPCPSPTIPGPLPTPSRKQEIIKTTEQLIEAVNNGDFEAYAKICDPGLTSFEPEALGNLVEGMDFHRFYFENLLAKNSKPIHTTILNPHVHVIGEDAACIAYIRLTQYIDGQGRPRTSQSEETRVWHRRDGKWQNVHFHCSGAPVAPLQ
# Chain of UniProt P42684 (whole entry, looked up): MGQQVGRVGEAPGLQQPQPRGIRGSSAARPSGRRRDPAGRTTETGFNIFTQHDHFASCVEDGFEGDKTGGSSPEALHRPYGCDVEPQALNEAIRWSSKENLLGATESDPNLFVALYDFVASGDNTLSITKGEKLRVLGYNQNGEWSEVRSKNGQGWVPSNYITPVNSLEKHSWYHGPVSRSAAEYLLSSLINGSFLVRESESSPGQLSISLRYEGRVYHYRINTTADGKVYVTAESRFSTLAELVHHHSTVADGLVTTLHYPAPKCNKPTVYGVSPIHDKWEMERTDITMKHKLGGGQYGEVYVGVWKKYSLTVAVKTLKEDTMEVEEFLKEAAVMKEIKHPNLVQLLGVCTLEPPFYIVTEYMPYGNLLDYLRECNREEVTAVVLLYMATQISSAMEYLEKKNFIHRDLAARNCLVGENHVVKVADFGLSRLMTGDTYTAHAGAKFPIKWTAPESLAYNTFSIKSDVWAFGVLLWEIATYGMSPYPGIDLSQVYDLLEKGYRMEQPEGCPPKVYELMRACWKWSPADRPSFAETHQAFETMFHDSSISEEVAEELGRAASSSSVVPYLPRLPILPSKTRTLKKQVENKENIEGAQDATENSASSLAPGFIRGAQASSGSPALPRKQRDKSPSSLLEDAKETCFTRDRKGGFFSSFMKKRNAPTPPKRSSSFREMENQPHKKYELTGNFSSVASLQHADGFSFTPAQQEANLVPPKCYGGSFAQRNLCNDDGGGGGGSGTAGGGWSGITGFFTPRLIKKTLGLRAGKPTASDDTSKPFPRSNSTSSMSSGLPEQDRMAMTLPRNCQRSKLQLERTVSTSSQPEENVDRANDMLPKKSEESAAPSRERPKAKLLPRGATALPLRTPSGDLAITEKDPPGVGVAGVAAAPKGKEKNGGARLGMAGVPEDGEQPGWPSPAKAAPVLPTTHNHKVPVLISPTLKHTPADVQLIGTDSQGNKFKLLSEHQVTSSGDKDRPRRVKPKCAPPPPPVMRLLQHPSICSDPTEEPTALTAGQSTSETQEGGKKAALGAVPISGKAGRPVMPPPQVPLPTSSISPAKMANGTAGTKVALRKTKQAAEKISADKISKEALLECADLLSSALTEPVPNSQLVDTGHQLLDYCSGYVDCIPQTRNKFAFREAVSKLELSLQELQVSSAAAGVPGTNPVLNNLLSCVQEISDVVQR

# Study 1
# SMILES: Cc1ncsc1-c1ccc(C(CO)NC(=O)C2CC(O)CN2C(=O)C(C(C)C)n2cc(-c3ccc(COc4c(-c5c(C)c(F)cc6[nH]ncc56)c(C5CC5)cc5c(N6CC7CC6CN7)nc(OC6CCOCC6)nc45)cc3)nn2)cc1 (stereo not shown)
test system,setting,tumour volume
"GP5d xenograft, mouse","30 mg/kg twice weekly, day 7",153 mm3 and 230 mm3 and 102 mm3 and 146 mm3
"mouse, HT-29 xenograft","sc, 30 mg/kg once daily, day 8",463 mm3 and 518 mm3 and 444 mm3 and 586 mm3 and 468 mm3
"mouse, GP2d xenograft","30 mg/kg once weekly, day 0",197 mm3 and 212 mm3 and 229 mm3 and 176 mm3 and 191 mm3
"mouse, lung LXFA sample B PDX","30 mg/kg twice weekly, day 22",188 mm3 and 81.2 mm3 and 269 mm3 and 63 mm3 and 33 mm3 and 67.1 mm3 and 19.7 mm3 and 159 mm3
"mouse, PK-59 xenograft","3 mg/kg, day 14",623 mm3 and 577 mm3 and 425 mm3 and 482 mm3 and 627 mm3
"mouse, lung LXFA sample A PDX","10 mg/kg twice weekly, day 0",87.4 mm3 and 140 mm3 and 66.8 mm3 and 233 mm3 and 108 mm3 and 217 mm3 and 121 mm3 and 60.4 mm3
"KP-4 xenograft, mouse","30 mg/kg twice weekly, day 4",188 mm3 and 146 mm3 and 141 mm3 and 189 mm3 and 172 mm3

# Study 2
# SMILES: CN(C1COC1)C(C)(C)/C=C(\C#N)C(=O)N1CCC[C@H]1Cn1nc(-c2ccc(Oc3ccccc3)cc2F)c2c(N)ncnc21
# Read-out: kinase activity
target,setting,inhibition
"CAMK2B (Homo sapiens, UniProt Q13554)",0.1 µM,-3%
"STK16 (Homo sapiens, UniProt O75716)",1 µM,9%
"RAF1 (Homo sapiens, UniProt P04049)",1 µM,7%
"SIK2 (Homo sapiens, UniProt Q9H0K1)",1 µM,0%
"PRKCZ (Homo sapiens, UniProt Q05513)",0.1 µM,3%
"SYK (Homo sapiens, UniProt P43405)",1 µM,0%
"CAMK4 (Homo sapiens, UniProt Q16566)",1 µM,9%
"EGFR (Homo sapiens, UniProt P00533)",1 µM,21%
"Aurora kinase A (AURKA, Homo sapiens, UniProt O14965)",1 µM,11%
"MAP2K1 (Homo sapiens, UniProt Q02750)",1 µM,-4%
"ABL2 (Homo sapiens, UniProt P42684)",0.1 µM,1%
"AXL (Homo sapiens, UniProt P30530)",1 µM,2%
"FLT4 (Homo sapiens, UniProt P35916)",1 µM,9%
"JAK2 (Homo sapiens, UniProt O60674)",1 µM,-5%
"PRKCA (Homo sapiens, UniProt P17252)",0.1 µM,-4%

# Study 3
# SMILES: NC/C(=C\F)COc1ccc(Cn2c(=S)[nH]c(=O)c3[nH]cnc32)cc1
# Read-out: enzyme activity
# AOC3: Amine oxidase [copper-containing] 3 (AOC3, Homo sapiens, UniProt Q16853)
# Chain of UniProt Q16853 (whole entry, looked up): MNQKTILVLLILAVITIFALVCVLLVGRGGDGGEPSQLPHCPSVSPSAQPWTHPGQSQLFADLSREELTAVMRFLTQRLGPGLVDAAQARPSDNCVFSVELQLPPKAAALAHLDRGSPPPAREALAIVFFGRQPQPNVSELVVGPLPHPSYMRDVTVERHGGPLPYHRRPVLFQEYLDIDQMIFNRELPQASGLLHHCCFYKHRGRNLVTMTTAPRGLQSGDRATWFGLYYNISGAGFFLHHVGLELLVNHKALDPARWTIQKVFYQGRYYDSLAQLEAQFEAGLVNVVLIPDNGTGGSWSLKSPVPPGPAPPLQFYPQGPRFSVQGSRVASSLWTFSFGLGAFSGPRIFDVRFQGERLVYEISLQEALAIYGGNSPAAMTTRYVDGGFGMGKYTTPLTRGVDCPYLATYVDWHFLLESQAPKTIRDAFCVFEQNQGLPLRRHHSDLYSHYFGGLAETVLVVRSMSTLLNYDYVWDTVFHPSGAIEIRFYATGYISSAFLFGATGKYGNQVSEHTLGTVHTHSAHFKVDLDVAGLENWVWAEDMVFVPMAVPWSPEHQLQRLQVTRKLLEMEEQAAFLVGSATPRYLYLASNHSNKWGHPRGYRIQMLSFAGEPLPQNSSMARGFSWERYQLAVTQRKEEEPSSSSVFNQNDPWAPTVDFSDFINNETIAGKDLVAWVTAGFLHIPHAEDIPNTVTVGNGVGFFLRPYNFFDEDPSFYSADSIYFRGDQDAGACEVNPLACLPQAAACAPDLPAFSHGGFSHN
# MPO: Myeloperoxidase (MPO, Homo sapiens, UniProt P05164)
# Chain of UniProt P05164 (whole entry, looked up): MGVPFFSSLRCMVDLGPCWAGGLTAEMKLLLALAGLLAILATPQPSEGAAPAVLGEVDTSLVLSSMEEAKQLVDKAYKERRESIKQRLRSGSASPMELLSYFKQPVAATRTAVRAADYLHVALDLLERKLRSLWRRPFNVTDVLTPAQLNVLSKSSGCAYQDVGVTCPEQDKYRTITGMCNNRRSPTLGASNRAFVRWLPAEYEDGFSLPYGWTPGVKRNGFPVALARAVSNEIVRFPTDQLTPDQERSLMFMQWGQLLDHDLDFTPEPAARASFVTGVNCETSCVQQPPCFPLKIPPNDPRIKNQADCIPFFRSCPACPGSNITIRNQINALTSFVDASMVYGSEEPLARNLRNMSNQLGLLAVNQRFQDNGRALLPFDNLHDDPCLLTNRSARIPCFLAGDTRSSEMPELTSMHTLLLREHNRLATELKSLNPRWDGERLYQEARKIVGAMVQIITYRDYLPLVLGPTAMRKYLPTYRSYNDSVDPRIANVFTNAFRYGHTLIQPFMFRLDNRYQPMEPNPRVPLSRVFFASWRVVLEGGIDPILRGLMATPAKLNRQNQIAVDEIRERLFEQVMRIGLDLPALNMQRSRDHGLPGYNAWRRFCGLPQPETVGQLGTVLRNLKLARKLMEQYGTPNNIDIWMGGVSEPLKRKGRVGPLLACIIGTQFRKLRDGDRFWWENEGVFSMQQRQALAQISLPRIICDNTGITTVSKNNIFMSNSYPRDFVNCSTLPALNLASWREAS
target,assay,setting,inhibition
AOC3,"inhibitor, fluorescence",0.3333 µM,102%
MPO,,1.235 µM,11.5% and 4.14%
MPO,"inhibitor, fluorescence",1.111 µM,5.45%
AOC3,"inhibitor, fluorescence",3.333 µM,100%
MPO,,3.704 µM,16.7% and 12.3%
AOC3,"inhibitor, fluorescence",1 µM,101%

# Study 4
# Compound: C[C@@H]1CN(c2ccc(-c3cc(C(=O)NCCOCCOCCOCCOCCNC(=O)Cn4cc(-c5[nH]cc(C(=O)N[C@@H](CC(N)=O)c6ccc(F)c(Cl)c6)c5-c5ccc(Cl)cc5F)cn4)ccc3F)cc2NC(=O)c2c[nH]c(=O)cc2C(F)(F)F)C[C@H](C)N1C
# Read-out: thermal unfolding
# Method: differential scanning fluorimetry
# Tested at: 5.5 µM
# Reading: higher = more unfolded
# DCAF1: DDB1- and CUL4-associated factor 1 (DCAF1, Homo sapiens, UniProt Q9Y4B6)
# Chain of UniProt Q9Y4B6 (whole entry, looked up): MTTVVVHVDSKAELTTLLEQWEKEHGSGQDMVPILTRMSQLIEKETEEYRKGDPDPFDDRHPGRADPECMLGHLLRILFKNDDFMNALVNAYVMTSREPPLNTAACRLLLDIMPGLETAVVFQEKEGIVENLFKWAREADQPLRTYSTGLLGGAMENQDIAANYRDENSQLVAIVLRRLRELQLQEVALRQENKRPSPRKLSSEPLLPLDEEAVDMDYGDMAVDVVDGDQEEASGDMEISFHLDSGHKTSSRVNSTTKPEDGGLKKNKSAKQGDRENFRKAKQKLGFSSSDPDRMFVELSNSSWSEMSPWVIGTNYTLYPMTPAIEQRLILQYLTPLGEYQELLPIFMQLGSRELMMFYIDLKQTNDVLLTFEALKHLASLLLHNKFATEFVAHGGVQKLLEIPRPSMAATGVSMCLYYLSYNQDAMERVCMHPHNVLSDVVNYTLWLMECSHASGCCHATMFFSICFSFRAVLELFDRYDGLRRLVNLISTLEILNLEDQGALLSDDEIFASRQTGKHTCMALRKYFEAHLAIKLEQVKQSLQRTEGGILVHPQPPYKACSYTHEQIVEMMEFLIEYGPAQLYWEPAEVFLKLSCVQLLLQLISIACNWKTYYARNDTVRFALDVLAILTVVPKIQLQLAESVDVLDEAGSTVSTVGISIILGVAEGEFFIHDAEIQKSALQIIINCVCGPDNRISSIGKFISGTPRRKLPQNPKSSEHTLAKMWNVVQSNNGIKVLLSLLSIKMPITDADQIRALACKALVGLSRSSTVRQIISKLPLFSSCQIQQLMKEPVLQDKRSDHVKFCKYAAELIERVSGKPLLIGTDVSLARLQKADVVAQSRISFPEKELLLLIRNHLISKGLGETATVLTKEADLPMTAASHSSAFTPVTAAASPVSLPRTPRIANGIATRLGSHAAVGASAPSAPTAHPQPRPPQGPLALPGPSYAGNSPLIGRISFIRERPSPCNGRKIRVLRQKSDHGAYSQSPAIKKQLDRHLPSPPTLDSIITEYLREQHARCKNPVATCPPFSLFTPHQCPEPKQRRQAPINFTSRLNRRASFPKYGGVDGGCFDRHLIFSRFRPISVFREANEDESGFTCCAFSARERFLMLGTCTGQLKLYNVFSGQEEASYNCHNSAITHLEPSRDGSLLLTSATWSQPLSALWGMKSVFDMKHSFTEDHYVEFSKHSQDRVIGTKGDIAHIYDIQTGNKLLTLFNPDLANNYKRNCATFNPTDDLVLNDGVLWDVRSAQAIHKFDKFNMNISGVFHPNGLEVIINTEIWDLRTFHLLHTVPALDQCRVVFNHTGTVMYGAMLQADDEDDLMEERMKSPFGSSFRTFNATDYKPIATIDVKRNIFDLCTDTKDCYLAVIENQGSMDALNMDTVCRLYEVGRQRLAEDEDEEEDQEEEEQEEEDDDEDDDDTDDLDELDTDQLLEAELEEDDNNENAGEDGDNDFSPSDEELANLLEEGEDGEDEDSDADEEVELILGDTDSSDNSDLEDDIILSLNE
# WDR5: WD repeat-containing protein 5 (WDR5, Homo sapiens, UniProt P61964)
target,setting,SYPRO Orange fluorescence
DCAF1,63.81 °C,53800 a.u.
DCAF1,77.41 °C,46600 a.u.
WDR5,80.21 °C,24000 a.u.
DCAF1,41.4 °C,10900 a.u.
DCAF1,93.21 °C,31800 a.u.
WDR5,64.41 °C,7950 a.u.
DCAF1,41.8 °C,11000 a.u.

# Study 5
# SMILES: COc1cc(-c2nc3ccc(C(=O)NCCCN(C)C)cc3n2C2CCC2)cc(OC)c1OC
target,assay,setting,remaining binding
"STK25 (Homo sapiens, UniProt O00506)","binding, competition with immobilised ligand",1 µM,100%
"CLK4 (Homo sapiens, UniProt Q9HAZ1)","binding, competition with immobilised ligand",1 µM,85%
"ERBB2 (Homo sapiens, UniProt P04626)","binding, competition with immobilised ligand",1 µM,100%
"MAP4K2 (Homo sapiens, UniProt Q12851)","binding, competition with immobilised ligand",1 µM,86%
"eIF-2-alpha kinase GCN2, C-terminal kinase domain (EIF2AK4, Homo sapiens, UniProt Q9P2K8, S808G)","binding, competition with immobilised ligand",1 µM,90%
"ANKK1 (Homo sapiens, UniProt Q8NFD2)","binding, competition with immobilised ligand",1 µM,64%
"ULK1 (Homo sapiens, UniProt O75385)","binding, competition with immobilised ligand",1 µM,86%
"TNIK (Homo sapiens, UniProt Q9UKE5)","binding, competition with immobilised ligand",1 µM,83%
"ABL2 (Homo sapiens, UniProt P42684)","binding, competition with immobilised ligand",1 µM,86%
"STK38 (Homo sapiens, UniProt Q15208)","binding, competition with immobilised ligand",1 µM,46%
"MAP3K5 (Homo sapiens, UniProt Q99683)","binding, competition with immobilised ligand",1 µM,82%
"CAMKK2 (Homo sapiens, UniProt Q96RR4)","binding, competition with immobilised ligand",1 µM,82%
"KIT (Homo sapiens, UniProt P10721, T670I/V559D)","binding, competition with immobilised ligand",1 µM,80%
"RIOK3 (Homo sapiens, UniProt O14730)","binding, competition with immobilised ligand",1 µM,100%
"LCK (Homo sapiens, UniProt P06239)","binding, competition with immobilised ligand",1 µM,6.4%
"PIK3C3 (Homo sapiens, UniProt Q8NEB9)","binding, competition with immobilised ligand",1 µM,74%
"CIT (Homo sapiens, UniProt O14578)","binding, competition with immobilised ligand",1 µM,86%
"MAP2K7 (Homo sapiens, UniProt O14733)",KINOMEscan,1000 nM,94%
"MAP3K13 (Homo sapiens, UniProt O43283)","binding, competition with immobilised ligand",1 µM,96%
"ERBB4 (Homo sapiens, UniProt Q15303)","binding, competition with immobilised ligand",1 µM,82%
"STK26 (Homo sapiens, UniProt Q9P289)","binding, competition with immobilised ligand",1 µM,100%

# Study 6
# Structure (SMILES): CC[C@@]1(c2cccc(C(F)(F)F)c2)C2=C(Nc3n[nH]cc31)[C@H](F)C(C)(C)CC2=O (single isomer, unassigned)
# Tested at: 1 µM
target,assay,scale,remaining binding [%]
"CAMK2B (Homo sapiens, UniProt Q13554)","kinase binding, KINOMEscan",reference: DMSO control,64
"STK36 (Homo sapiens, UniProt Q9NRP7)","binding, competition with immobilised ligand",,100
"AKT3 (Homo sapiens, UniProt Q9Y243)","kinase binding, KINOMEscan",reference: DMSO control,100
"Ribosomal protein S6 kinase alpha-1, C-terminal kinase domain (RPS6KA1, Homo sapiens, UniProt Q15418)","kinase binding, KINOMEscan",reference: DMSO control,86
"MAST1 (Homo sapiens, UniProt Q9Y2H9)","kinase binding, KINOMEscan",reference: DMSO control,100
"MELK (Homo sapiens, UniProt Q14680)","kinase binding, KINOMEscan",reference: DMSO control,88
"PAK6 (Homo sapiens, UniProt Q9NQU5)","binding, competition with immobilised ligand",,100
"AKT1 (Homo sapiens, UniProt P31749)","kinase binding, KINOMEscan",reference: DMSO control,100
"SRMS (Homo sapiens, UniProt Q9H3Y6)","kinase binding, KINOMEscan",reference: DMSO control,96
"Tyrosine-protein kinase ABL1, phosphorylated (ABL1, Homo sapiens, UniProt P00519, E255K)","kinase binding, KINOMEscan",reference: DMSO control,65
"RIOK3 (Homo sapiens, UniProt O14730)","kinase binding, KINOMEscan",reference: DMSO control,100
"DCLK2 (Homo sapiens, UniProt Q8N568)","binding, competition with immobilised ligand",,100
"LATS2 (Homo sapiens, UniProt Q9NRM7)","binding, competition with immobilised ligand",,100

# Single results of other studies
SMILES,test system,setting,measurement,value
Cc1ccc(O)c(C)c1-c1cnc2[nH]c(-c3cnc(N4CCC(CN5CCN(c6ccc7c(c6)C(=O)N(C6CCC(=O)NC6=O)C7=O)CC5)CC4)nc3)cc2c1C#N (stereo not shown),"female CD-1 mouse, plasma","oral, 10 mg/kg, fasted",half-life,1.5 h
Cc1ccc(O)c(C)c1-c1cnc2[nH]c(-c3cnc(N4CCC5(CC4)CC(CN4CCN(c6ccc(NC7CCC(=O)NC7=O)cc6F)CC4)C5)nc3)cc2c1C#N (stereo not shown),"CD-1 mouse, female, plasma","intravenous, 1 mg/kg",plasma clearance,26.9 mL/min/kg
"Cc1ccc(O)c(C)c1-c1cnc2[nH]c(-c3cnc(N4CCC5(CC4)CC(N4CCN(c6ccc(N[C@H]7CCC(=O)NC7=O)cc6F)CC4)CO5)nc3)cc2c1C#N (single isomer, unassigned)",mouse HCC1569 xenograft,"oral, 120 mg/kg twice daily, 21 days",tumour growth inhibition,66.4%
Cc1ccc(O)c(C)c1-c1cnc2[nH]c(-c3cnc(N4CCC(CN5CCN(c6ccc(NC7CCC(=O)NC7=O)cc6F)CC5)CC4)nc3)cc2c1C#N (stereo not shown),"Beagle dog, male, plasma","oral, 5 mg/kg",Cmax,90 ng/mL

# A few entries again (study 6):
target,assay,scale,remaining binding [%]
"CAMK2B (Homo sapiens, UniProt Q13554)","kinase binding, KINOMEscan",reference: DMSO control,64
"STK36 (Homo sapiens, UniProt Q9NRP7)","binding, competition with immobilised ligand",,100
"AKT3 (Homo sapiens, UniProt Q9Y243)","kinase binding, KINOMEscan",reference: DMSO control,100
"Ribosomal protein S6 kinase alpha-1, C-terminal kinase domain (RPS6KA1, Homo sapiens, UniProt Q15418)","kinase binding, KINOMEscan",reference: DMSO control,86
"MAST1 (Homo sapiens, UniProt Q9Y2H9)","kinase binding, KINOMEscan",reference: DMSO control,100
"MELK (Homo sapiens, UniProt Q14680)","kinase binding, KINOMEscan",reference: DMSO control,88
